{"data": "Assay results collected from several papers", "organism": "Mycobacterium tuberculosis", "note": "Each line is one published result; not all experiments were run side by side. ± marks the error that the study gave."}
{"Compound": "CN1CCN(c2ccc(Nc3nccc(-c4cccc([N+](=O)[O-])c4)n3)cc2C(F)(F)F)CC1", "test system": "H37Rv auxotrophic strain", "endpoint": "MIC", "value": "26.4 µg/mL"}
{"Compound": "COc1ccc(-c2cc(C(F)(F)F)c3c(N)c(C(=O)Nc4ccc(C)c(C)c4)sc3n2)cc1", "test system": "H37Rv wild type", "scale": "relative to: HepG2 IC50 over M. tuberculosis IC90", "endpoint": "selectivity index", "value": "< 1"}
{"Compound": "O=c1c2cc(Br)ccc2[nH]c(=S)n1Cc1cccnc1", "test system": "PptT conditional knockdown", "endpoint": "MIC90", "value": "0.84 µM"}
{"Compound": "Nc1c(C(=O)N2CCOCC2)sc2nc(-c3ccc(F)cc3)ccc12", "test": "growth inhibition", "test system": "H37Rv LepB under-expressing", "endpoint": "IC50", "value": "21000 ± 8000 nM"}
{"Compound": "COCc1ccc2[nH]c(=S)n(Cc3cccnc3)c(=O)c2c1", "test system": "PptT conditional knockdown", "endpoint": "MIC90", "value": "7.27 µM"}
{"Compound": "Cc1nc(OCCc2cc(F)cc(F)c2)c(C(=O)NC2CCCC2)s1", "test system": "H37Rv-LP", "scale": "relative to: HepG2 CC50 over Mtb IC90", "endpoint": "selectivity index", "value": 0.3}
{"Compound": "CCCCCCC#Cc1cncc(-c2nnc(SCc3cc([N+](=O)[O-])cc([N+](=O)[O-])c3)n2C)c1", "test": "bacterial growth", "test system": "Erdman wild type", "endpoint": "IC50", "value": "340 nM"}
{"Compound": "O=c1c2ccncc2[nH]c(=S)n1Cc1cccnc1", "test system": "PptT conditional knockdown", "endpoint": "MIC90", "value": "4.95 µM"}
{"Compound": "Cc1ccc(OCCc2cc(F)cc(F)c2)c(C(=O)NCC2CC2)c1", "test system": "H37Rv-LP", "scale": "relative to: HepG2 CC50 over Mtb IC90", "endpoint": "selectivity index", "value": 2}
{"Compound": "CO[C@H]1[C@H](O[C@H]([C@H]2O[C@@H](n3ccc(=O)[nH]c3=O)[C@H](O)[C@@H]2O)[C@H](NCCCNC(=O)[C@@H](NC(=O)[C@@H](NC(=O)N[C@H](C(=O)O)C(C)C)[C@@H]2CCN=C(N)N2)[C@@H](O)C(C)C)C(=O)O)O[C@H](CN)[C@H]1O", "test": "microplate alamar blue", "test system": "H37Rv", "endpoint": "MIC90", "value": "1.6 ± 0.041 µg/mL"}
{"Compound": "CCC(NC(=O)c1sc2nc(-c3ccc(OC)cc3)cc(C(F)(F)F)c2c1N)c1ccccc1 (stereo not drawn)", "test": "growth inhibition", "test system": "H37Rv LepB under-expressing", "endpoint": "IC50", "value": "720 ± 200 nM"}
{"Compound": "N#Cc1ccc2[nH]c(=S)n(Cc3cccnc3)c(=O)c2c1", "test system": "PptT conditional knockdown", "endpoint": "MIC90", "value": "1.48 µM"}
{"Compound": "O=C(CNc1ccc(Cl)cc1)NC1C2CC3CC(C2)CC1C3 (stereo not drawn)", "test system": "H37Rv mc2 6206", "setting": "concentration not given, 168 h", "endpoint": "activity", "value": "inactive"}
{"Compound": "CCC(C)(O)c1ccc(OCCc2cccc(F)c2)c(C(N)=O)c1 (stereo not drawn)", "test": "growth", "test system": "H37Rv-LP", "setting": "120 h", "endpoint": "IC90", "value": "24000 ± 1700 nM"}
{"Compound": "CN1CCCC(Cn2c(=S)[nH]c3ccc(Cl)cc3c2=O)C1 (stereo not drawn)", "test system": "PptT conditional knockdown", "endpoint": "MIC90", "value": "> 100 µM"}
{"Compound": "CC[C@@H](CO)NCCN[C@@H](CC)CO", "test": "time-kill", "test system": "H37Rv", "setting": "concentration not given, 7 days", "endpoint": "kill rate", "value": "0.46 h⁻¹"}
{"Compound": "Cc1cccc(CNC(=O)c2sc3nc(-c4ccc5c(c4)OCO5)cc(C(F)(F)F)c3c2N)c1C", "test": "growth inhibition", "test system": "H37Rv LepB under-expressing", "endpoint": "IC50", "value": "1100 ± 1000 nM"}
{"Compound": "CNC(=O)c1cc(C(F)F)ccc1OCCc1cccc(F)c1", "test system": "H37Rv-LP", "scale": "relative to: HepG2 CC50 over Mtb IC90", "endpoint": "selectivity index", "value": 30}
{"Compound": "Cc1cccc(NC(=O)c2sc3nc(-c4cccs4)cc(C(F)(F)F)c3c2N)c1C", "test": "growth inhibition", "test system": "H37Rv LepB under-expressing", "endpoint": "IC50", "value": "> 100000 nM"}
{"Compound": "CO[C@H]1/C=C/O[C@@]2(C)Oc3c(C)c(O)c4c(O)c(c(/C=N/N5CCN(C)CC5)c(O)c4c3C2=O)NC(=O)/C(C)=C\\C=C\\[C@H](C)[C@H](O)[C@@H](C)[C@@H](O)[C@@H](C)[C@H](OC(C)=O)[C@@H]1C", "test system": "THP-1 macrophages, H37Rv-GFP", "setting": "96 h", "endpoint": "IC80", "value": "110 nM"}
{"Compound": "COc1ccc(-c2cc(C(F)(F)F)c3c(N)c(C(=O)N4CC(C)OC(C)C4)sc3n2)cc1 (stereo not drawn)", "test system": "H37Rv wild type", "setting": "120 h", "endpoint": "IC90", "value": "inactive"}
{"Compound": "CC(C)(O)c1ccc(OCCc2cccc(F)c2)c(C(N)=O)c1", "test": "growth", "test system": "H37Rv-LP", "setting": "120 h", "endpoint": "IC90", "value": "6700 ± 930 nM"}
{"Compound": "COc1ccc(-c2cc(C(F)(F)F)c3c(N)c(C(=O)Nc4cccc(C)c4OC)sc3n2)cc1", "test": "growth inhibition", "test system": "H37Rv LepB under-expressing", "endpoint": "IC50", "value": "> 100000 nM"}
{"Compound": "Cc1ccc(OCCc2ccc(C3CC3)cc2)c(C(N)=O)c1", "test": "growth", "test system": "H37Rv-LP", "setting": "120 h", "endpoint": "IC90", "value": "410 ± 310 nM"}
{"note": "For quick reference, copied from above:"}
{"Compound": "CC[C@@H](CO)NCCN[C@@H](CC)CO", "test": "time-kill", "test system": "H37Rv", "setting": "concentration not given, 7 days", "endpoint": "kill rate", "value": "0.46 h⁻¹"}
